Experimental data of several laboratories.
Compare with care: the assays were run in different laboratories. “And” joins repeats or separate records; there may be more than shown.

SMILES | test | test system | conditions | how to read | quantity | value
COc1cc2c(Oc3ccc4[nH]c(C)cc4c3F)ccnc2cc1OCC1(N)CC1 |  | paediatric recurrent refractory sarcoma | concentration not given, whole group |  | grade 3 Proteinuria | 0%
COc1cc(-c2[o+]c3cc(O)cc(O)c3cc2O[C@@H]2O[C@H](CO)[C@@H](O)[C@H](O)[C@H]2O)cc(OC)c1O |  | buffer without protein | 50 µM, pH 7 |  | absorption maximum | 571 nm
C[C@]1(CO)Cc2ncn(-c3ccc(C#N)c(Cl)c3)c2C(=O)O1 |  | human | 10 mg, European food-effect part, fasted |  | any TEAE | 25%
CC(C)[C@@H]1NC(=O)CNC(=O)[C@H](CC(N)=O)NC(=O)[C@H](CCCNC(=N)N)NC(=O)[C@H](Cc2ccc(O)cc2)NC(=O)[C@H](C(C)C)NC(=O)[C@@H](NC(=O)[C@@H](NC(=O)[C@H](CC(N)=O)NC(=O)[C@H](Cc2c[nH]c3ccccc23)NC(=O)[C@H](C)NC(=O)[C@H](Cc2ccccc2)NC(=O)CN)C(C)C)CSSC[C@@H](C(=O)N[C@@H](Cc2cnc[nH]2)C(=O)N[C@@H](CCCNC(=N)N)C(=O)N[C@@H](CCCNC(=N)N)C(=O)N[C@@H](C)C(=O)N[C@@H](CC(N)=O)C(N)=O)NC(=O)[C@H](C(C)C)NC(=O)[C@H](CCCNC(=N)N)NC1=O | HPLC | trypsin | 2560 µM, 0.50 h, together with: trypsin 1 % w/v |  | remaining peptide | 42.8% and 47.2% and 44.1%
[O-][S+]1CCc2nc(N3CCC(c4ncc(Cl)cn4)CC3)nc(NC3(CO)CCC3)c21 (stereo not shown) | refers to: Headache | healthy male humans | 36 mg single dose |  | adverse event incidence | 16.7%
CC(C)(O)c1cc(Nc2cc(Oc3cn(C4CC4)nc3C3CCOCC3)ccn2)ccn1 | Pyrexia | advanced cancer patients, dose escalation | oral, dose not given, 3 weeks on/1 off, all causality grade ≥3 |  | treatment-emergent adverse events | 0%
Cn1cncc1-c1c(F)cncc1NC(=O)c1c(N)nn2cc(F)cnc12 |  | human patients | oral, 150 mg twice daily, 4 days on 3 days off |  | patients grade ≥3 Neutrophil count decrease | 25%
CO[C@H]1C[C@@H]2CC[C@@H](C)[C@@](O)(O2)C(=O)C(=O)N2CCCC[C@H]2C(=O)O[C@H]([C@H](C)C[C@@H]2CC[C@@H](OC(=O)NCCOCCOCCOCCOCCOCCOCCOCCOCCC(=O)N3CCc4cc(Cn5nc(-c6ccc7oc(N)nc7c6)c6c(N)ncnc65)ccc4C3)[C@H](OC)C2)C[C@@H](O)[C@H](C)/C=C(\C)[C@@H](O)[C@@H](OC)C(=O)[C@H](C)C[C@H](C)/C=C/C=C/C=C/1C |  | patients with advanced solid tumours | intravenous, 6 mg weekly, any grade |  | pneumonia AE leading to dose reduction | 0%
N#Cc1cc(NC(=O)[C@H]2c3ccccc3C(=O)N(CC(F)(F)F)[C@@H]2c2cccnc2)ccc1F |  | Sprague Dawley rat, both sexes | oral |  | well tolerated single dose | ≤ 750 mg/kg
N[C@@H]1c2ccccc2OC12CCN(c1cnc3c(N4CCCc5ncccc54)n[nH]c3n1)CC2 | phase Ia | patients advanced metastatic solid tumours | oral, dose not given, all doses, any relationship |  | AST increased AE incidence | 21%
C[C@H]1COCCN1c1nc(NCc2cccnc2C(F)(F)F)c2cccnc2n1 |  | anaesthetized rat | intravenous, 30 mg/kg | baseline: control | PR change | 25.9%
CCN1CCN(Cc2ccc(Nc3ncc(F)c(-c4cc(F)c5nc6n(c5c4)[C@H](C)CCC6)n3)nc2)CC1 |  | advanced solid tumour patients | dose not given, Phase Ia monotherapy |  | Hypokalemia incidence, grade ≥3 | 4.2%
O=C(Nc1ccccc1)C1CCN(C(=O)Oc2cccnc2)CC1 | refers to: skin disorders | healthy women | oral, 20 mg, 7 days |  | subjects with adverse event | 14.3%
